Published values gathered from unrelated publications.
“And” joins repeats or separate records; there may be more than shown. Numbers after ± are the reported error.

Structure (SMILES) | cell line | test | setting | scale | endpoint | result
CC(C)(C)C(=O)OCOP(=O)(OCOC(=O)C(C)(C)C)C1CCCN(O)C1=O (stereo not drawn) | U-251 | – | – | – | CC50 | > 100 µM
O=C(C[Se]C(=O)c1cc2ccccc2s1)Nc1cccc(C(F)(F)F)c1 | NCI60 CNS subpanel | NCI60 five-dose screen | – | – | CC50 | 6.92 µM
CC[C@H](C)[C@H](NC(=O)[C@@H](NC(=O)[C@@H]1CCCN1C(=O)[C@@H](NC(=O)[C@@H](NC(=O)[C@H](Cc1c[nH]cn1)NC(=O)[C@@H]1CCCN1C(=O)[C@H](CC(C)C)NC(=O)[C@@H](NC(=O)[C@H](Cc1c[nH]cn1)NC(=O)[C@H](CCCCN)NC(=O)[C@H](C)NC(=O)[C@H](CO)NC(=O)CNC(=O)[C@H](CC(C)C)NC(=O)[C@@H](NC(=O)CNC(=O)[C@H](Cc1ccccc1)NC(=O)[C@H](CC(C)C)NC(=O)CNC(=O)[C@@H](N)Cc1ccc(O)cc1)C(C)C)C(C)C)C(C)C)C(C)C)C(C)C)C(=O)N[C@@H](C)C(=O)N[C@@H](CCC(=O)O)C(=O)N[C@@H](Cc1c[nH]cn1)C(=O)N[C@@H](CC(C)C)C(N)=O | HepG2 | MTT | 40 µg/mL, 24 h | – | viability | 96.7 ± 3.55%
CC(C)C[C@H](NC(=O)[C@H](CCC(=O)O)NC(=O)[C@@H](N)Cc1ccccc1)C(=O)N[C@@H](CCC(=O)O)C(=O)N[C@@H](CCCNC(=N)N)C(=O)N[C@@H](CCCNC(=N)N)C(=O)N[C@@H](Cc1ccccc1)C(=O)N[C@@H](CCCCN)C(=O)N[C@@H](CCC(N)=O)C(=O)N[C@@H](CCC(N)=O)C(=O)O | HCT-116 | transwell | concentration not given | – | migration | 113% and 98.6%
Cc1cc(Oc2nc(N3CC[C@@H](c4ccncc4)C3)ncc2F)[nH]n1 | MDA-MB-436 | cell growth or viability | – | – | IC50 | 45.7 µM
CC(=O)Oc1ccccc1C(=O)[Se]CC(=O)Nc1cccc(C(F)(F)F)c1 | NCI60 colon subpanel | NCI60 five-dose screen | – | – | CC50 | 46.3 µM
CC(C)CC(O)(CC(C)C)c1cn(C(=O)N2CCCC2)nn1 | mouse T-cells | protein abundance, unenriched SILAC proteomics, item: Uqcrh | 1 nM, 6 h, single tryptic peptide | baseline: DMSO | SILAC ratio | 1.08 and 0.71
CC(C)C[C@H](NC(=O)[C@H](CC(=O)O)NC(=O)CNC(=O)[C@@H](N)CCCNC(=N)N)C(=O)N[C@@H](C)C(=O)N[C@H](C(=O)N[C@@H](CC(C)C)C(=O)N[C@@H](CCCNC(=N)N)C(=O)N[C@@H](CCC(N)=O)C(=O)N[C@@H](CC(C)C)C(=O)N[C@@H](C)C(=O)N[C@@H](CCC(N)=O)C(=O)N[C@@H](CCC(=O)O)C(=O)N[C@@H](CC(=O)O)C(=O)NCC(=O)N[C@H](C(=O)N[C@H](C(=O)NCC(=O)N[C@H](C(=O)N[C@@H](CCCNC(=N)N)C(=O)NCCOCCOCCOCCOCCOCCOCCOCCOCCOCCOCCOCCOCCC(=O)N[C@@H](CS)C(N)=O)C(C)C)C(C)C)C(C)C)[C@@H](C)O | H1975 lung adenocarcinoma | cell binding, phage binding, item: output/input phage | 10 min, 37 °C | baseline: control phage | selectivity ratio | 120 ± 17
CC1CCC2C(C)C(OC(=O)CCC(=O)N3CCC(Nc4ccc(S(=O)(=O)NC(=O)c5ccc(N6CCN(CC7=C(c8ccc(Cl)cc8)CC(C)(C)CC7)CC6)cc5Oc5cnc6[nH]ccc6c5)cc4[N+](=O)[O-])CC3)OC3OC4(C)CCC1C32OO4 (stereo not drawn) | THP-1 | annexin V/PI flow cytometry, item: annexin V-/PI+ | 0.2 µM, 24 h | – | necrotic cells | 0.1%
